Measurements of several laboratories.
“And” joins repeats or separate records; there may be more than shown.
ABL1 non-phosphorylated: Tyrosine-protein kinase ABL1, non-phosphorylated (ABL1, Homo sapiens, UniProt P00519)
ABL1 E255K phosphorylated: Tyrosine-protein kinase ABL1, phosphorylated (ABL1, Homo sapiens, UniProt P00519, E255K)

COc1c(Cl)cccc1Nc1c(-c2ccncc2C#C[C@@]2(C)CCCN2C(=O)/C=C/CN(C)C)[nH]c2c1C(=O)NCC2  remaining binding (ABL1 (Homo sapiens, UniProt P00519, Q252H); KINOMEscan competition binding; 3 µM; baseline: control): 33% and 63%
Nc1ncc2c(n1)-c1c([nH]c3ccc(C4=CCOCC4)cc13)CCC2  remaining binding (Tyrosine-protein kinase ABL1, phosphorylated (ABL1, Homo sapiens, UniProt P00519, H396P); binding, competition with immobilised ligand; 1 µM): 100%
COc1ccc(NC(=O)Nc2ccc3c(c2)C(=O)N(C(C)CO)CC(C)C(CN(C)Cc2ccc4c(c2)OCO4)O3)cc1 (stereo not shown)  remaining binding (Tyrosine-protein kinase ABL1, phosphorylated (ABL1, Homo sapiens, UniProt P00519); binding, competition with immobilised ligand; 10 µM): 88%
CC(=O)N1c2ccc(-c3ccc(CNC(=O)c4cn5cc(-c6cnc(N)nc6)nc(N6CCOCC6)c5n4)cc3)cc2CC[C@@H]1C  remaining binding (ABL1 non-phosphorylated; KINOMEscan; 10 µM): 61%
CNS(=O)(=O)Nc1nccc(Cc2c(C)c3ccc(Oc4ncccc4F)cc3oc2=O)c1F  remaining binding (ABL1 non-phosphorylated; binding, competition with immobilised ligand; 10 µM): 100%
CNc1ccc(-c2n[nH]c3c2CCN(C(=O)c2ccccc2)C3)cc1  remaining binding (ABL1 non-phosphorylated; cell-free assay, competition with immobilised ligand; 10 µM): 23%
CN1CCN(Cc2ccc(NC(=O)c3cccc(C#Cc4cnc(N)c5ncccc45)c3)cc2C(F)(F)F)CC1  remaining binding (ABL1 E255K phosphorylated; cell-free assay, competition with immobilised ligand; 0.5 µM): 1.5%
C=C1CCCCCCCCCC(CO)C1=O (stereo not shown)  remaining binding (ABL1 E255K phosphorylated; cell-free assay, competition with immobilised ligand; 10 µM): 64%
CCN1CCN(Cc2ccc(NC(=O)c3ccc(C)c(NC(=O)c4cncc(-c5cccs5)c4)c3)cc2C(F)(F)F)CC1  remaining binding (ABL1 (Homo sapiens, UniProt P00519); binding, competition with immobilised ligand; 1 µM): 0.3%
C=CC(=O)N1CCc2ccc(-n3c(=O)ccc4cnc5ccc(-c6cnn(C)c6)cc5c43)cc21  remaining binding (Tyrosine-protein kinase ABL1, phosphorylated (ABL1, Homo sapiens, UniProt P00519, T315I); KINOMEscan, refers to: (T315I)-phosphorylated; 1 µM; baseline: control): 100%

Repeated from above:
COc1ccc(NC(=O)Nc2ccc3c(c2)C(=O)N(C(C)CO)CC(C)C(CN(C)Cc2ccc4c(c2)OCO4)O3)cc1 (stereo not shown)  remaining binding (Tyrosine-protein kinase ABL1, phosphorylated (ABL1, Homo sapiens, UniProt P00519); binding, competition with immobilised ligand; 10 µM): 88%
